Published values pooled from the literature.
Compare with care: the assays were run in different laboratories. Several values in a cell are separate wells, animals, samples, runs or records. ± marks the error that the study gave.
Sequence of UniProt P11388 (whole entry, looked up): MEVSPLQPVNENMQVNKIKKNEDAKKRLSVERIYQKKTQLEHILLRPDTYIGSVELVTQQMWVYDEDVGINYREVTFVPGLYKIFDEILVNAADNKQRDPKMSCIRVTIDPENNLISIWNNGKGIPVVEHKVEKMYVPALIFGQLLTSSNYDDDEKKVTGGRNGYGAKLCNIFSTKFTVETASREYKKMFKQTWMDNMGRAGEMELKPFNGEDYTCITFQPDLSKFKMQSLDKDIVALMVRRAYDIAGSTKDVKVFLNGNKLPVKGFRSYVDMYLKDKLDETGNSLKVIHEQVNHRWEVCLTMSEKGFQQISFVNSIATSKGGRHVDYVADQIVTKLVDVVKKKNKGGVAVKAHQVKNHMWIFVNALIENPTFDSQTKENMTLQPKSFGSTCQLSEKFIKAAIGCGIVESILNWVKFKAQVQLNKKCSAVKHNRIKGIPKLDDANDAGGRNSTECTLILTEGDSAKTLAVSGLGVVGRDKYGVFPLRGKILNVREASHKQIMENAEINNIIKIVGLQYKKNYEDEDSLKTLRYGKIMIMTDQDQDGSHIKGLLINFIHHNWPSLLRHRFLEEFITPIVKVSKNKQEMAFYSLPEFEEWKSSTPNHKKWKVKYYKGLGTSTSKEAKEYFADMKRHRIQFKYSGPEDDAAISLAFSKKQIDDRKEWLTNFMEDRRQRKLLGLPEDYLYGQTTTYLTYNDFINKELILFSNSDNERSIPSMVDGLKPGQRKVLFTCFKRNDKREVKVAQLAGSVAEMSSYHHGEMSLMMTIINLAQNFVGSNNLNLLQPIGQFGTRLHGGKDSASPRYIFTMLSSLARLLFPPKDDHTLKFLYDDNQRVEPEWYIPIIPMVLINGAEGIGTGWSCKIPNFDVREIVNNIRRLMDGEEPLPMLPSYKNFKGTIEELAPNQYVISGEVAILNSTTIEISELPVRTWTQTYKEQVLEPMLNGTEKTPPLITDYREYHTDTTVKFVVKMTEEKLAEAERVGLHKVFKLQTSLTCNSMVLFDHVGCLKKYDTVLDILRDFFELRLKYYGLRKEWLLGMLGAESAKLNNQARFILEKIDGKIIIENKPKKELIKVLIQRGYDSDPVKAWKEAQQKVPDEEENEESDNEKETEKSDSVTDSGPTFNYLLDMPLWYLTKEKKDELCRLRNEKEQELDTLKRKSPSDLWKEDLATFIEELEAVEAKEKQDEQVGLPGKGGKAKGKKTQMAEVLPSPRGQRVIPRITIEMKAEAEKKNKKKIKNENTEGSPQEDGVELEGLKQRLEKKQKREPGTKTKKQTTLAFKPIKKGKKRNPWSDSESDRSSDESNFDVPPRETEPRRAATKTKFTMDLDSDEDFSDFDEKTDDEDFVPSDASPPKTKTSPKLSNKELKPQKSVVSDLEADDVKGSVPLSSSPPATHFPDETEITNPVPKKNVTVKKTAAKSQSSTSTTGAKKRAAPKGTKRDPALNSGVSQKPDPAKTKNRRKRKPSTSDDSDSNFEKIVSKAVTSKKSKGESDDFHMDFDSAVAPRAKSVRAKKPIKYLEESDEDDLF
Sequence of UniProt P47898 (whole entry, looked up): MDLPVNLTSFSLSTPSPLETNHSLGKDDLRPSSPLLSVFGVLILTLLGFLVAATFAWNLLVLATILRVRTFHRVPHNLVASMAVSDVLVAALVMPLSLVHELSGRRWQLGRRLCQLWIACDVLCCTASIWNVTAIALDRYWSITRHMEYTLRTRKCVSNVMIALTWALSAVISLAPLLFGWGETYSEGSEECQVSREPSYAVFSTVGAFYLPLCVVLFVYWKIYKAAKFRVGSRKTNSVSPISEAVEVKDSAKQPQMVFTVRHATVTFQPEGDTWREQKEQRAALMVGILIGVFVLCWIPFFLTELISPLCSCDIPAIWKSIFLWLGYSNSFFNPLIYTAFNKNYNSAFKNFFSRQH
Sequence of UniProt P40337 (whole entry, unmodified, looked up): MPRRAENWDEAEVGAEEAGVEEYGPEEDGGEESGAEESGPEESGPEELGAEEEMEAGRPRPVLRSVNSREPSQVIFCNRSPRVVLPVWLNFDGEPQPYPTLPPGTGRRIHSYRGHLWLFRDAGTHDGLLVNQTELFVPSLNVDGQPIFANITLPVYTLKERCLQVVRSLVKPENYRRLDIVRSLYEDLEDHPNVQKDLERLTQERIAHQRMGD
Sequence of UniProt Q96SW2 (whole entry, looked up): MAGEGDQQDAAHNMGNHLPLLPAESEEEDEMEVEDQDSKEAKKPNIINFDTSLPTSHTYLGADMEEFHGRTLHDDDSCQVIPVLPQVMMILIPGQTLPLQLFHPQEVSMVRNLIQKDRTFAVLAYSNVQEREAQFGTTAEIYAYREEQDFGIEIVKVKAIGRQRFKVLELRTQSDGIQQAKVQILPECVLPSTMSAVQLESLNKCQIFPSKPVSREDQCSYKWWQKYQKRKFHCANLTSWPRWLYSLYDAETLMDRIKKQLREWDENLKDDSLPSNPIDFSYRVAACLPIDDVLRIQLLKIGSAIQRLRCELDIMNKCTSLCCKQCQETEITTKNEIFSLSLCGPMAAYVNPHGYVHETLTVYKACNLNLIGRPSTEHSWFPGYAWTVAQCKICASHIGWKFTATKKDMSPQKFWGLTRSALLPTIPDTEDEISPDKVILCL
Sequence of UniProt Q15059 (whole entry, unmodified, looked up): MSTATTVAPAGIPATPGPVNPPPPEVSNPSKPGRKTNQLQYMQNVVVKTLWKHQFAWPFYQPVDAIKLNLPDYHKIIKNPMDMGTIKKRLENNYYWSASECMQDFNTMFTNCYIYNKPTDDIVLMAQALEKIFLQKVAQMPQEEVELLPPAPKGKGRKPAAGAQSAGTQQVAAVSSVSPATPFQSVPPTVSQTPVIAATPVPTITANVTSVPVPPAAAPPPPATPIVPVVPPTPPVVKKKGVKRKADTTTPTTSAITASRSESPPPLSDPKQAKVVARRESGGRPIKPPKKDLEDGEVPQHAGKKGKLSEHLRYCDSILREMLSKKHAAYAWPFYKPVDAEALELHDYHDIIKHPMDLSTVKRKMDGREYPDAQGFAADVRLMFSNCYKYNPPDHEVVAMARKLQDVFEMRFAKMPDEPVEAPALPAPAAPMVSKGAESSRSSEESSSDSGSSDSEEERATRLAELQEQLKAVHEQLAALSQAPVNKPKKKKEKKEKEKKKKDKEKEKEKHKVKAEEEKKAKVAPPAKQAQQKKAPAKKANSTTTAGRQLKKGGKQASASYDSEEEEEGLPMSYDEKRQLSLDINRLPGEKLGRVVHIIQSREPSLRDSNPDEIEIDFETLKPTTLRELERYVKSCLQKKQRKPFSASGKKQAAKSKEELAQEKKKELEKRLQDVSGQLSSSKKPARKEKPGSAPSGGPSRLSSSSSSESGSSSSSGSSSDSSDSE
Sequence of UniProt Q92207 (whole entry, looked up): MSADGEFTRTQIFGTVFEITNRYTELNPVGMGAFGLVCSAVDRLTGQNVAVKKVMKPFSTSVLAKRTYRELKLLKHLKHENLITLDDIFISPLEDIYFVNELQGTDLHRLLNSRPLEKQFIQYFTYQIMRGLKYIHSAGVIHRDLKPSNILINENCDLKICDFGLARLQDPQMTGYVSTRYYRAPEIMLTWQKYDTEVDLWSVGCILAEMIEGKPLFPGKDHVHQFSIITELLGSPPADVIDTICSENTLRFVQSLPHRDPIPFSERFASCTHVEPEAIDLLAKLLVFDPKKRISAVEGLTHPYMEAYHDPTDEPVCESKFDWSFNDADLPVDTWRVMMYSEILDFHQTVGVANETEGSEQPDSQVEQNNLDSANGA
Sequence of UniProt Q9KCC6 (whole entry, looked up): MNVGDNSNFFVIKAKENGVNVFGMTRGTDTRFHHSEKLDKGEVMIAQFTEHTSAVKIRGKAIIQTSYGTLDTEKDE
Sequence of UniProt P34995 (whole entry, unmodified, looked up): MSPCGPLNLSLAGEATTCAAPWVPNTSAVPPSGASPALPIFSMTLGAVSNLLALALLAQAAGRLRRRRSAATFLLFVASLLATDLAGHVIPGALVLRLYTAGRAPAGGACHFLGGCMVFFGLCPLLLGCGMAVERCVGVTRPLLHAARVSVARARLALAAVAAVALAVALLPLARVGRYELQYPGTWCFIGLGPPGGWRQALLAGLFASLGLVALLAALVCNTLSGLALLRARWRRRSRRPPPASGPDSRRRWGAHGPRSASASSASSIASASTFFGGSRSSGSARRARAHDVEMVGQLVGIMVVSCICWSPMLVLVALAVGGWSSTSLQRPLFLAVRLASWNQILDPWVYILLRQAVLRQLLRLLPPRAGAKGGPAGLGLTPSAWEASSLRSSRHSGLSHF
Sequence of UniProt Q9UBL9 (whole entry, unmodified, looked up): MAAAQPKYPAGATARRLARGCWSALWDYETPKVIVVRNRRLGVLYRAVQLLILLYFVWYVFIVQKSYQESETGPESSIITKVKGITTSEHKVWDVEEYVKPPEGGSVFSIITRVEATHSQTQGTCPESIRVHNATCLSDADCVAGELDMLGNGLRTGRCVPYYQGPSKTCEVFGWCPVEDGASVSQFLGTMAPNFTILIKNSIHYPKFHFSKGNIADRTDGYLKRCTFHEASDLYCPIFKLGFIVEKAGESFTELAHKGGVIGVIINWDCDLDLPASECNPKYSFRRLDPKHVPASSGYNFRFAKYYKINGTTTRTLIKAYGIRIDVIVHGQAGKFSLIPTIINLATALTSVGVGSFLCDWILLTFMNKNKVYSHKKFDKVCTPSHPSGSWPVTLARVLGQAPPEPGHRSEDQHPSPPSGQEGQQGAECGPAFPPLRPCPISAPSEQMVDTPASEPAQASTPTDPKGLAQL
Sequence of UniProt P48729 (whole entry, looked up): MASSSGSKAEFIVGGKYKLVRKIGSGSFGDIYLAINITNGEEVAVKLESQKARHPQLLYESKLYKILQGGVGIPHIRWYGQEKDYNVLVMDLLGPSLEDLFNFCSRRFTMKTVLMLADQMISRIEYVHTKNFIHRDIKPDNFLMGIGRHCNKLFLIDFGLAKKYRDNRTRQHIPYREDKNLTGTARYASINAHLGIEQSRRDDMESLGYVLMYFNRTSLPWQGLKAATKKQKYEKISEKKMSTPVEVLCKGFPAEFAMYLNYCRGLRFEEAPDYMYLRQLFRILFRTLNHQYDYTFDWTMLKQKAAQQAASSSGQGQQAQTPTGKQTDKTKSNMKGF

Compound = COc1cc(/C=C2\SC(=O)NC2=O)cc(F)c1OCCNc1nc2c(cnn2C2CCCC2)c(=O)[nH]1; target = PDE7A (Homo sapiens, UniProt Q13946); how to read = baseline: PDE7A over PDE9; measurement = selectivity ratio; result = 85 fold
Compound = O=C1CCC(N2Cc3cc(NC(=O)c4ccc(F)cc4)ccc3C2=O)C(=O)N1 (stereo not drawn); target = Cereblon/Casein kinase I alpha (CSNK1A1/CRBN, Homo sapiens, UniProt P48729+Q96SW2); test = degrader, live-cell HiBiT kinetic; system = HEK293 LgBiT; conditions = 10 µM; measurement = degradation rate constant; result = 1.2 h⁻¹
Compound = N[C@@H](Cc1c[nH]c2ccccc12)C(=O)O; target = Transcription attenuation protein MtrB (mtrB, Halalkalibacterium halodurans, UniProt Q9KCC6); test = isothermal titration calorimetry; conditions = concentration not given, 25 °C, site 1 two-site model; measurement = binding stoichiometry; result = 0.7 ± 0.1
Compound = COc1ccc(Cc2nnc(NS(=O)(=O)c3ccc(OC)cc3)s2)cc1; target = Glutathione hydrolase 1 proenzyme, without transmembrane domain (Homo sapiens, UniProt P19440); test = GSH hydrolysis; conditions = 37 °C, no inhibition up to 250 µM, added: GSH 5-20 µM; measurement = Kii; result = > 250 µM
Compound = Cc1n[nH]c2ccc(-c3cc(OC[C@@H](N)Cc4ccccc4)cnc3-c3ccoc3)cc12; target = Mitogen-activated protein kinase HOG1 (HOG1, Candida albicans, UniProt Q92207); test = MIB/MS competition binding; system = Candida albicans cell lysate; conditions = 10 µM; how to read = baseline: DMSO, lower = stronger binding; measurement = log2 fold change; result = -0.916
Compound = CC(=O)N[C@H](C(=O)N1C[C@H](O)C[C@H]1C(=O)NCc1ccc(-c2scnc2C)cc1)C(C)(C)SCCCCCCNC(=O)C[C@@H]1N=C(c2ccc(Cl)cc2)c2c(sc(C)c2C)-n2c(C)nnc21; target = VHL/BRD3, BD2; with Elongin B/C (Homo sapiens, UniProt P40337+Q15059); test = ternary complex binding, ITC; conditions = 25 °C, added: VHL-ElonginB-ElonginC titrated into compound:PROTAC:Brd3^BD2 complex; measurement = ΔG; result = -9.7 ± 0.2 kcal/mol
Compound = CCCCC[C@H](O)/C=C/[C@H]1[C@H](O)CC(=O)[C@@H]1C/C=C\CCCC(=O)O; target = PTGER1 (Homo sapiens, UniProt P34995, G92A); test = IP1 accumulation, agonist; system = AD293; conditions = 1 h, EP1 G92A mutant; measurement = Emax; result = 109 ± 3.13%
Compound = Nc1ncnc2c1ncn2[C@@H]1O[C@H](COP(=O)(O)OP(=O)(O)OP(=O)(O)O)[C@@H](O)[C@H]1O; target = P2X purinoceptor 2 (P2RX2, Homo sapiens, UniProt Q9UBL9, D148K); test = ion current, agonist, two-electrode voltage clamp; system = Xenopus oocytes; conditions = concentration not given, first maximal application; measurement = peak current; result = 5420 nA
Compound = O=c1nc(SCc2cc(F)cc(C(F)(F)F)c2)nc(SCc2ccc3sccc3c2)[nH]1; target = TOP2A (Homo sapiens, UniProt P11388); test = ATPase activity; conditions = 7.8 µM, added: ATP 0.05 mM; measurement = ATP hydrolysis rate; result = 0.456 µM/min and 0.467 µM/min
Compound = Nc1ncnc2c1ncn2[C@@H]1O[C@H](CO[P@](=O)(O)O[P@](=O)(O)O[P@@](=O)(O)S)[C@@H](O)[C@H]1O; target = GUK1 (Homo sapiens, UniProt Q16774); test = binding, isothermal titration calorimetry; conditions = molar ratio 1.319, fitted curve; measurement = ΔH; result = -0.803 kcal/mol
Compound = Cc1ncccc1OC[C@H]1CN(CCN2CCc3ccccc32)CCO1; target = HTR5A (Homo sapiens, UniProt P47898); test = radioligand binding; conditions = concentration not given, added: [3H]LSD; measurement = inhibition; result = -14.1%
Compound = CCn1c(-c2nc3cc(C(=O)N4CCC[C@@H](N)C4)cc(OC)c3n2C)cc2cccnc21; target = PADI1 (Homo sapiens, UniProt Q9ULC6); test = enzyme activity, mixed inhibitor; conditions = added: BAEE, 10 mM CaCl2; measurement = Ki'; result = 3.53 ± 1.9 mM
